Measurements collected from several papers.
Every numbered part comes from another study and shows a few of its results, in no order. Positions count from the first letter of the parent shown.

Study 1
Target: Histone acetyltransferase KAT6A, winged helix 1, GST fusion (KAT6A, Homo sapiens, UniProt Q92794, residues 1-85)
Method: protein binding microarray
Molecule type: double-stranded DNA, one strand shown
Sample: in vitro
Concentration: not given
Setting: 8-mer, flanks averaged, mean of 2 arrays, mostly near background
Reference: not given
Direction: higher = stronger binding
Target sequence (chain): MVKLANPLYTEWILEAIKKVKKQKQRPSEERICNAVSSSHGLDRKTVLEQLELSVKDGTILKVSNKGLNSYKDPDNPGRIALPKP
`GCTGCCAC` gave an E-score of -0.119.
For `CCTTACCC`, the E-score was 0.00251.
`CATAAGGC` has an E-score of 0.0206.
`CAGCCTCG` gave an E-score of -0.143.
`GGCCCGCC` has an E-score of 0.363.
`CAGGCTCA` gave an E-score of -0.2.
The E-score of `ACACATCC` is reported as 0.00502.
`AAGGATTA` has an E-score of -0.216.
`AAGCGAAG` has an E-score of -0.0269.
The E-score of `AAAGGCGC` is reported as 0.256.
For `GACTCACA`, the E-score was -0.272.
For `CAATCTCC`, the E-score was 0.056.
With `ACTTCCTC` the E-score was -0.166.
With `GAATCGTA` the E-score was -0.0614.
For `CAGAACGC`, the E-score was 0.212.
With `CGTATGAC` the E-score was 0.0232.
`CCATCATC` gave an E-score of -0.122.
The E-score of `AGCCCCCT` is reported as -0.0918.
For `CACCATCA`, the E-score was -0.155.
With `ATATGCGC` the E-score was 0.265.
`GCAATCCA` has an E-score of -0.133.
With `ACCTAAAA` the E-score was -0.0402.
For `CGCGGACA`, the E-score was 0.279.
`GAGTTGCA` gave an E-score of -0.229.
With `GCCCCATA` the E-score was -0.113.

Study 2
Target: ABI1, truncated, D143A, DHFR fusion (Arabidopsis thaliana)
Method: DHFR PCA, deep sequencing
Sample: yeast
Setting: methotrexate growth selection, single substitutions
With: (+)-ABA 0.0091 µM
Reference: wild-type fitted maximum
Direction: higher = stronger binding
Starting sequence: PYL1, truncated, DHFR fusion (Arabidopsis thaliana); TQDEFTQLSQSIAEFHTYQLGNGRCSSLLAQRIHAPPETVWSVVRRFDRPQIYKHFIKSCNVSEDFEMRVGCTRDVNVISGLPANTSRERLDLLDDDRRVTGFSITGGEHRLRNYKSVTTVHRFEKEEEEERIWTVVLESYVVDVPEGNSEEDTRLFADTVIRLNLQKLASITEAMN; partner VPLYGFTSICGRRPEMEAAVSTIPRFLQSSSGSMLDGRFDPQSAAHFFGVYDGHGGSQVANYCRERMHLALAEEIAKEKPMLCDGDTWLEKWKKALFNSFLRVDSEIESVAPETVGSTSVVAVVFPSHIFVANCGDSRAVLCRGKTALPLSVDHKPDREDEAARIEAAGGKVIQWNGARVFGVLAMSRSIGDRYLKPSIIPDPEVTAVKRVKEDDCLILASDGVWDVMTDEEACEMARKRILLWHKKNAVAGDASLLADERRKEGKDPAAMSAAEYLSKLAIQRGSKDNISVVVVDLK
`E127R` — result for “relative binding score”: 40.9%.
Under “relative binding score”, `R163K` is recorded as 42.5%.
Under “relative binding score”, `P37M` is recorded as 1.85%.
Under “relative binding score”, `F5Q` is recorded as 5.52%.
Under “relative binding score”, `I33C` is recorded as 3.01%.
For `K54C`, “relative binding score” read -3.05%.
Under “relative binding score”, `A13C` is recorded as 4.68%.
`E174H` — result for “relative binding score”: -11.4%.
For `P37D`, “relative binding score” read -3.47%.
`R111N` — result for “relative binding score”: -4.71%.
Under “relative binding score”, `A30R` is recorded as 3.35%.
`Q167C`: “relative binding score” 3.72%.

Study 3
Target: CREB3L2, bZIP domain (human)
Method: DHFR protein complementation
Sample: yeast
Setting: single substitutions, most at no-binding floor
Reference: wild-type JUN-FOS pair
Direction: higher = stronger binding
Starting sequence: JUN, bZIP domain (human); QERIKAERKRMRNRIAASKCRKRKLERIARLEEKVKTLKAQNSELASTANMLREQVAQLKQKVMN; partner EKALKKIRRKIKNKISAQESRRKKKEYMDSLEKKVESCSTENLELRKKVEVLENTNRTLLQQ
The binding fitness of `E33M` is reported as -1.49 natural log.
For `R53F`, the binding fitness was -1.34 natural log.
`M51N` has a binding fitness of -1.11 natural log.
`L38C` has a binding fitness of -1.49 natural log.
`A40Q` has a binding fitness of -1.38 natural log.
For `S47K`, the binding fitness was -1.21 natural log.
`A46V` has a binding fitness of -1.3 natural log.
With `N42T` the binding fitness was -1.49 natural log.
The binding fitness of `L31N` is reported as -1.57 natural log.
The binding fitness of `T48Q` is reported as -1.32 natural log.

Study 4
Target: Centromere-binding protein 1, full length, N-terminal tag (CBF1, Saccharomyces cerevisiae, UniProt P17106, residues 1-351)
UniProt P17106, sequence (whole entry, looked up): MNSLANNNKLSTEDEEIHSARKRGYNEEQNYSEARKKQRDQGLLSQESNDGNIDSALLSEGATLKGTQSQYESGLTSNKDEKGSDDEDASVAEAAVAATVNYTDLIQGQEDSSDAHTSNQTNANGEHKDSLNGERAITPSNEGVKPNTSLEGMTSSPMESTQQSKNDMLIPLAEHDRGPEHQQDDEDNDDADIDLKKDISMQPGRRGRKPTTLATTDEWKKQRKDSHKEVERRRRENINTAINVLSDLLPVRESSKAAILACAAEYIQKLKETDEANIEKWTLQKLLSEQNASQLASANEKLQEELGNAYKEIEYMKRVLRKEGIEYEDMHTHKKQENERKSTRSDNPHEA
Method: protein-binding microarray
Molecule type: double-stranded DNA, one strand shown
Sample: in vitro
Concentration: 0.8 µM
Setting: whole 60-bp probe, no competitor
Direction: higher = stronger binding
For `GAAGATATTACTTATCTCAGCTGAGGTCTCTGGTAGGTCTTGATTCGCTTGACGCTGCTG`, the fluorescence intensity was 482 a.u.
For `CTAGATGAGTCGAGTCATCACCTTCCTCTAAACTTCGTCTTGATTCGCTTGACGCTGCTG`, the fluorescence intensity was 508 a.u.
`CTATTATGAGACTATATCATGACCATACCTTATTTCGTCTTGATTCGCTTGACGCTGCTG` has a fluorescence intensity of 498 a.u.
The fluorescence intensity of `TGTACGAAGCTATGGCACGTGGTTATAGTAGTTAGGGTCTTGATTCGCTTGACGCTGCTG` is reported as 7020 a.u.
With `GAATTTGTTCAAGGTGGCGTTTGCCGTATAAAATAGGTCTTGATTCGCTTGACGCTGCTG` the fluorescence intensity was 538 a.u.
`CCTAACTACTATAATGATGACACATAGCTTCGTACAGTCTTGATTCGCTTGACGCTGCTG` gave a fluorescence intensity of 533 a.u.
With `CTATTTATAAGTTACATCACCTGTTTGCTGTTATTCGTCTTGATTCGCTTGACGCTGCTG` the fluorescence intensity was 761 a.u.
With `CCTAACTACTATACTGATGTCACATAGCTTCGTACAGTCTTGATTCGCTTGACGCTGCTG` the fluorescence intensity was 549 a.u.
For `TGTACGAAGCTATGCCACGGGCGTATAGTAGTTAGGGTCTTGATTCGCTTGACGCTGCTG`, the fluorescence intensity was 518 a.u.
`GAACTCTTATTTAGTAACGTGGTTTATTAACTCTAGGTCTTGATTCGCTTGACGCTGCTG` gave a fluorescence intensity of 1210 a.u.
`GAATTTAAAAAGCTGCACGTGACTAACTAGAACTAGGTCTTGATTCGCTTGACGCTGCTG` gave a fluorescence intensity of 18600 a.u.
`GAAGAAGCCTTTGCACCTGATATAAAAAGTGTCTAGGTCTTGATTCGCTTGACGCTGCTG` has a fluorescence intensity of 1000 a.u.
For `GAATTCATAACCTGTCACCTTGAAACTAAAAAATAGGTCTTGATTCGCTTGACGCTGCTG`, the fluorescence intensity was 550 a.u.
With `CTAATTTAACAATATGGTGAATTAAGTGTTGATTTCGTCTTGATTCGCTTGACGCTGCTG` the fluorescence intensity was 517 a.u.
`GAAACTTAAATAACACACACGTTATCTCTAGCGTAGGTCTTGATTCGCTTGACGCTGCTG` has a fluorescence intensity of 625 a.u.
For `CCTAACTACTATAATCACGTGGTATAGCTTCGTACAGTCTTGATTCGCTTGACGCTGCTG`, the fluorescence intensity was 12200 a.u.
For `GAAGCACGGTCACTACTCACGAGGAGGCGTGCATAGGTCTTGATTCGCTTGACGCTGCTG`, the fluorescence intensity was 612 a.u.
The fluorescence intensity of `CTAAAGCAGGATTACACCGTGATTTGATGAAATTTCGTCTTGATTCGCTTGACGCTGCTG` is reported as 593 a.u.
`CTAAACTACAGCTTCCATGTGAGCTTAAAACGATTCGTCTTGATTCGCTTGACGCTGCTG` gave a fluorescence intensity of 622 a.u.

Study 5
Target: CCNB1, cyclin fold, Cln2 fusion (human)
Method: yeast growth competition, sequencing
Sample: yeast
Setting: strong parent motif
Reference: not given
Direction: higher = stronger binding
Starting sequence: INSM1 docking peptide (human); PKAIRKLHFEDEV; partner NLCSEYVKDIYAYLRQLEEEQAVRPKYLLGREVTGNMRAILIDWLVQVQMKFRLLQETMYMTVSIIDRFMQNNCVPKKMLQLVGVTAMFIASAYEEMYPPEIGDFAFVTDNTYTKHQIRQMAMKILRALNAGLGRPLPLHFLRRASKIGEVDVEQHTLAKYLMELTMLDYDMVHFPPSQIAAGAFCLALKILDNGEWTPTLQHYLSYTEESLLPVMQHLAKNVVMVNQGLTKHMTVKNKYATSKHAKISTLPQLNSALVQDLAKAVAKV
`A3L`: “normalised enrichment score” 4.02.
`A3N` — result for “normalised enrichment score”: 0.388.
Under “normalised enrichment score”, `R5I` is recorded as 0.709.
`H8D` — result for “normalised enrichment score”: 3.38.
`R5C` — result for “normalised enrichment score”: 2.21.
For `H8M`, “normalised enrichment score” read 2.29.
`E12L` — result for “normalised enrichment score”: 1.67.
Under “normalised enrichment score”, `D11G` is recorded as 1.56.
`L7Y`: “normalised enrichment score” 0.0539.
`I4E`: “normalised enrichment score” 1.32.
`H8W` — result for “normalised enrichment score”: 1.61.
`D11Q`: “normalised enrichment score” 1.27.
`F9S` — result for “normalised enrichment score”: 0.0412.
`L7V` — result for “normalised enrichment score”: 0.286.
Under “normalised enrichment score”, `L7S` is recorded as 0.38.
For `A3S`, “normalised enrichment score” read 0.742.
`E10W`: “normalised enrichment score” 1.03.
`I4Y` — result for “normalised enrichment score”: 0.357.
`I4C`: “normalised enrichment score” 2.62.
`E10K`: “normalised enrichment score” 0.613.
`K2I` — result for “normalised enrichment score”: 2.53.
`A3T`: “normalised enrichment score” 3.59.
`K2L` — result for “normalised enrichment score”: 2.74.
Under “normalised enrichment score”, `F9G` is recorded as 0.12.
`A3W`: “normalised enrichment score” 3.35.

For quick reference, copied from above (study 3):
The binding fitness of `L31N` is reported as -1.57 natural log.
`M51N` has a binding fitness of -1.11 natural log.
The binding fitness of `T48Q` is reported as -1.32 natural log.
`A46V` has a binding fitness of -1.3 natural log.
The binding fitness of `E33M` is reported as -1.49 natural log.
`L38C` has a binding fitness of -1.49 natural log.
`A40Q` has a binding fitness of -1.38 natural log.
With `N42T` the binding fitness was -1.49 natural log.
For `S47K`, the binding fitness was -1.21 natural log.
